Measurements pooled from the literature.
Numbered parts are unrelated; each lists some results of a single study. Positions count from the first letter of the parent shown.

Block 1
Target: CCNB2, cyclin fold, Cln2 fusion (human)
Technique: yeast growth competition, sequencing
Sample: yeast
Setting: weak parent motif
Baseline: not given
Reading: higher = stronger binding
Parent: E2F1 docking peptide (human); PPVKRRLDLETDH
`PPVKRRLDLETDR [H13R]`: “normalised enrichment score” 0.0836.
`PPFKRRLDLETDH [V3F]` — result for “normalised enrichment score”: 0.429.
`PDVKRRLDLETDH [P2D]` — result for “normalised enrichment score”: 0.245.
For `PPVKRRLDLWTDH [E10W]`, “normalised enrichment score” read 0.575.
`PPVRRRLDLETDH [K4R]` — result for “normalised enrichment score”: 0.24.
`PPVKTRLDLETDH [R5T]` — result for “normalised enrichment score”: -0.151.
`PPVKRRLELETDH [D8E]`: “normalised enrichment score” 0.0529.
For `PPVKRRLDLETYH [D12Y]`, “normalised enrichment score” read 1.02.
Under “normalised enrichment score”, `PNVKRRLDLETDH [P2N]` is recorded as 0.286.
Under “normalised enrichment score”, `PPVKRILDLETDH [R6I]` is recorded as 0.246.
Under “normalised enrichment score”, `PPVKCRLDLETDH [R5C]` is recorded as 0.337.
For `PPVKERLDLETDH [R5E]`, “normalised enrichment score” read -0.083.
For `PPVKRRLDLETDI [H13I]`, “normalised enrichment score” read 0.803.
`PPVKRRCDLETDH [L7C]` — result for “normalised enrichment score”: 0.175.
`PPVKRREDLETDH [L7E]` — result for “normalised enrichment score”: 0.014.
Under “normalised enrichment score”, `PPVKRRLLLETDH [D8L]` is recorded as 0.675.
`PPVHRRLDLETDH [K4H]`: “normalised enrichment score” 0.299.
`PPVKRKLDLETDH [R6K]`: “normalised enrichment score” -0.0756.
`PPVKRRMDLETDH [L7M]` — result for “normalised enrichment score”: 0.162.
Under “normalised enrichment score”, `PPVKRRLDLEADH [T11A]` is recorded as 0.487.
For `LPVKRRLDLETDH [P1L]`, “normalised enrichment score” read 0.941.
`PPVQRRLDLETDH [K4Q]`: “normalised enrichment score” 0.263.
For `PPWKRRLDLETDH [V3W]`, “normalised enrichment score” read 0.144.
Under “normalised enrichment score”, `PPVKRCLDLETDH [R6C]` is recorded as -0.104.
For `PPVKRRLILETDH [D8I]`, “normalised enrichment score” read 0.616.

Block 2
Target: Sal-like protein 4, full length isoform A (SALL4, Homo sapiens, UniProt Q9UJQ4, residues 1-1053)
UniProt Q9UJQ4, sequence (whole entry, looked up): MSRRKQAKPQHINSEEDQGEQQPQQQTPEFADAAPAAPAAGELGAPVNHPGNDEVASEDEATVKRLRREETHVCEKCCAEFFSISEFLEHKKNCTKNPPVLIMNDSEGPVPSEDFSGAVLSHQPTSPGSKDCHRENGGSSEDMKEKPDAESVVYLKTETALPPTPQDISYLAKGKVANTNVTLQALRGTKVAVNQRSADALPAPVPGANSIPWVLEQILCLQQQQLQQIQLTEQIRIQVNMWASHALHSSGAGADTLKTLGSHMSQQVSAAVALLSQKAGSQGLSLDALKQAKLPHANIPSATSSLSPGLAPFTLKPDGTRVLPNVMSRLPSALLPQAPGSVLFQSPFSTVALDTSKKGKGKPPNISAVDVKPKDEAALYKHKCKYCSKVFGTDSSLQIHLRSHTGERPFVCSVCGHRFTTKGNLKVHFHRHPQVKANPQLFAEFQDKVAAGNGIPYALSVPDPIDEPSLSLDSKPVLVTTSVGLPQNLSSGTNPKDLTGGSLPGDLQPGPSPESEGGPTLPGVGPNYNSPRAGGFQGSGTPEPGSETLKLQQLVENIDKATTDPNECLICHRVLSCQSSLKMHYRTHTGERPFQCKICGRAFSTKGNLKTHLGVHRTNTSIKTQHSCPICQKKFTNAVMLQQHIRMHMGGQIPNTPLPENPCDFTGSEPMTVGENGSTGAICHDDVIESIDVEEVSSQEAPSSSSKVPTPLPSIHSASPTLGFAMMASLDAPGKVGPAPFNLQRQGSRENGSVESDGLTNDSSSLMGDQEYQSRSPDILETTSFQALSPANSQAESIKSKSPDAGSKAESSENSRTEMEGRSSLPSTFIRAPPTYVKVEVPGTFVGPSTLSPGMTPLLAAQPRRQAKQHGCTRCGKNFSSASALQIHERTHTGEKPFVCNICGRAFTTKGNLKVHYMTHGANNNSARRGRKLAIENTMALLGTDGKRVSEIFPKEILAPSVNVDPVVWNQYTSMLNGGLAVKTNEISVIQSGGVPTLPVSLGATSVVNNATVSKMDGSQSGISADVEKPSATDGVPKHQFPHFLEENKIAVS
Technique: universal PBM
Molecule type: double-stranded DNA, one strand shown
Sample: in vitro
Tested at: 600 nM
Setting: 8-mer, flanks averaged, mean of replicates
Reading: higher = stronger binding
With `ACCAGGAT` the E-score was -0.0815.
`ATAGAGCC` gave an E-score of -0.101.
`AGATCCCT` gave an E-score of -0.166.
With `ATCGTAAA` the E-score was 0.219.
`CCTGGGAG` has an E-score of -0.278.
With `GGCGGAAA` the E-score was -0.016.
With `CTCCAGCC` the E-score was -0.414.
`ACACCGTG` has an E-score of -0.149.
`AACCCAAA` has an E-score of -0.0002.
With `CAAACTTG` the E-score was 0.0324.
With `ACCTAATG` the E-score was -0.0389.
For `ACGGACAG`, the E-score was -0.202.
The E-score of `CGCGCATA` is reported as 0.0153.
`ATCTGCTG` has an E-score of -0.0439.
`ATGACGAA` has an E-score of 0.203.
With `CCACGTCG` the E-score was -0.309.
With `CCGACGGA` the E-score was -0.237.
The E-score of `AGCGTACC` is reported as -0.25.
With `CGAAGACC` the E-score was -0.246.
For `AGAACGTC`, the E-score was 0.107.
With `ACGTACAC` the E-score was 0.0519.
For `GCCGCCTA`, the E-score was -0.317.
The E-score of `AGGCACCG` is reported as -0.262.
With `GGCGCGCA` the E-score was -0.0473.
`CCGAGCGC` has an E-score of -0.285.

Block 3
Target: Ras GTPase-activating protein-binding protein 1, full length (G3BP1, Homo sapiens, UniProt Q13283)
UniProt Q13283, sequence (whole entry, looked up): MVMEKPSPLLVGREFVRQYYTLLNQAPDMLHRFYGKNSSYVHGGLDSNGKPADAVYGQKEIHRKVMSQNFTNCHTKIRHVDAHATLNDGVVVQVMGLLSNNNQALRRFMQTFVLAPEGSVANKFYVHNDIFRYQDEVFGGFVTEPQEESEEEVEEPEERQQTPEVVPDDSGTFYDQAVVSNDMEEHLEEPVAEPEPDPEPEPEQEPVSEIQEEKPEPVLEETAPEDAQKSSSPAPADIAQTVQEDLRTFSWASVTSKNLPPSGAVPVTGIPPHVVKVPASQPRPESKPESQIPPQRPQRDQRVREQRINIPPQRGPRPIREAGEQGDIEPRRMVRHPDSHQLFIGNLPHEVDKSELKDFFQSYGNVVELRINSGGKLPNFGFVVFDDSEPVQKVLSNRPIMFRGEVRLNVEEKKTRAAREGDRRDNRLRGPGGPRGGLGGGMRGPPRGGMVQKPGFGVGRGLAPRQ
Technique: RNA Bind-n-Seq
Molecule type: RNA
Sample: in vitro
Tested at: 200 nM
Setting: whole 134-nt RNA, ends assumed
Added: 150 mM LiCl
Baseline: input library
Reading: higher = stronger binding
Each molecule: 7-deaza-guanosine replaces G
Constant ends, left off below: GGGAGUUCUACAGUCCGACGAUC … UGGAAUUCUCGGGUGUCAAGG
With `UAACUUUAGAGGAGGAUCUGAUGGAUAUGGCAGUGGACGUGGAUUUGGGGAUGGCUAUAAUGGGUAUGCAGGAGGACCUGGAGGUGGCAA` the log2 enrichment was 0.423.
`CCUGUGCUACACAUCGUAUGUACCGAAUCAAACCCCCCCAAACCCCCCCAAAUUUUUAAAAAAGUAUUAUGUUACGCCGUUCGGAUCUGC` gave a log2 enrichment of 0.555.
For `UCAAGUCCUGUGCUACACAUCGUAUGUACCGAAUCGGGGAAGGGGAAGGGGAAGGAAAGUAUUAUGUUACGCCGUUCGGAUCUGCACUUC`, the log2 enrichment was -0.577.
The log2 enrichment of `CAAGUCCUGUGCUACACAUCGUAUGUACCGAAUCGGGGUUGGGGUUGGGGUUGGGGAAAGUAUUAUGUUACGCCGUUCGGAUCUGCACUU` is reported as -0.548.
With `CUGUGCUACACAUCGUAUGUACCGAAUCGGGUUUUUUGGGGUUUUUUGGGGUUUUUUGGGGAAAGUAUUAUGUUACGCCGUUCGGAUCUG` the log2 enrichment was 1.42.
The log2 enrichment of `CAAGUCCUGUGCUACACAUCGUAUGUACCGAAUCGGUUUGGAAAGGUUUUUUUGGAAAGUAUUAUGUUACGCCGUUCGGAUCUGCACUUC` is reported as -0.824.
`CACAGACAACACGCACCCACACAGACACAGAGGGAAGGGGUUGGGAUGGGGACAGGGUGCACAGCAGGGCGGGGUAGAACCCCAGCCCCU` gave a log2 enrichment of -0.571.
With `GCAGGAAGUAAAAACAAAUGGAAAUGCUUCGGAUAGUGGCAGGGGUGGGGGUUGCUAAGGAAAGGGUGGGAUGGAAGUGGGUAAAGAGUU` the log2 enrichment was -0.0453.

Block 4
Target: RNA binding protein fox-1 homolog 2, RRM domain, GST-SBP tag (RBFOX2, Homo sapiens, UniProt O43251-10, residues 100-194)
Technique: RNA Bind-n-Seq
Molecule type: RNA
Sample: in vitro
Tested at: 365 nM
Setting: natural RNA segment, single round, ends assumed
Baseline: no-protein control
Reading: higher = stronger binding
Constant ends, left off below: GGGAGUUCUACAGUCCGACGAUC … UGGAAUUCUCGGGUGCCAA
Target sequence (chain): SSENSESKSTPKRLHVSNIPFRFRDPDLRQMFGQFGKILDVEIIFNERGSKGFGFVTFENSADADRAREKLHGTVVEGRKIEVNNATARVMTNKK
`CAGAUUACAGAAAUGUAAGCCAGCGUAAGAGCAGUGGCUGGAUGUAAAGCGCCCAGCAGGAACCACAGGCACUCUGUGCUGUUUGUACUUGAGGUAUGUACCAUUUGUAU` — result for “RBNS enrichment (R)”: 0.487.
`CUCCGGCUUCUGAGACAGAGCAAGUACUUCAGCAGUCCUGCUGCUCUUGCUCUGAGCUACAAUCAUGGCUUCUCAUGUUACUUACCAAGUGAGAGUUUUGGUUAGUAAUC`: “RBNS enrichment (R)” 0.241.
For `CUCCCCUCCCCAAGUAUUUUAGUCCAAGUUUCCUUUAGUUUGAGAACAUAGAUUGUAUCACCCAUAUAUUCUUGAAUACACUUGUUUGGUUUGGUAUUACUUUGACUAUG`, “RBNS enrichment (R)” read 2.43.
`GGUAGUCCCAGCACUUGGAGAAGGCUGGAGGACCAGAAUUCAAGGCUAUCCUUGGCUACACAGUGAAUUUGAGACCAGCUUGGGCUCAUGAGACCCUGUCUCAAGGAAAA` — result for “RBNS enrichment (R)”: 0.446.
Under “RBNS enrichment (R)”, `AAAUUAACUGCAUAUAAAAUGGUUCACUUUUAUAUAGUCACAUGUAAUGGGCCUGAAAAAGUUUCUUCUUUGAUUAUGUAGUUACUCUAGAUACAUUCUUUUAGGGAAGU` is recorded as 0.389.
Under “RBNS enrichment (R)”, `UACUCUCAGAGAAGCCUUAAAGCAUCCUUUCUUUGACCUUCUGAAGAAAAGUAUAUAGAUCUGUAAUUGGACAGCUCUCUCGAAGAGAUCUUACAGACUGUAUCAGUCUA` is recorded as 0.265.
Under “RBNS enrichment (R)”, `GCUACUCUCGACGUAACAUAUAUACAUAUGUGUGUGUGUGUGUGUGUGUGUGUGUGCUAUCCAAAUAUAUUUGUAUAUAUUUGUAUAGCAUUUUUACACUUUAGGAGUAA` is recorded as 0.357.
`GAGCCUCUUCAUGCUCUAGUCACUGCCAAUACGAUGGAGAAUGUCAAAAAGGCAGUAGAACAGGUCAGAAACAUCCUGAAGCAGGGUAUUGAGACCCCAGAGGACCAGAA`: “RBNS enrichment (R)” 0.429.

A few entries again (block 3):
With `UAACUUUAGAGGAGGAUCUGAUGGAUAUGGCAGUGGACGUGGAUUUGGGGAUGGCUAUAAUGGGUAUGCAGGAGGACCUGGAGGUGGCAA` the log2 enrichment was 0.423.
`CCUGUGCUACACAUCGUAUGUACCGAAUCAAACCCCCCCAAACCCCCCCAAAUUUUUAAAAAAGUAUUAUGUUACGCCGUUCGGAUCUGC` gave a log2 enrichment of 0.555.
For `UCAAGUCCUGUGCUACACAUCGUAUGUACCGAAUCGGGGAAGGGGAAGGGGAAGGAAAGUAUUAUGUUACGCCGUUCGGAUCUGCACUUC`, the log2 enrichment was -0.577.
The log2 enrichment of `CAAGUCCUGUGCUACACAUCGUAUGUACCGAAUCGGGGUUGGGGUUGGGGUUGGGGAAAGUAUUAUGUUACGCCGUUCGGAUCUGCACUU` is reported as -0.548.
